Assay results from different studies.
Protocols differ between the studies behind these lines.

`COc1ccccc1CNC(=O)CCn1c(=O)[nH]c2ccsc2c1=O` gave a solubility of 80 µM (aqueous buffer; pH 6.5).
For `COc1cc(-c2ccc3oc(-c4ccsc4)c(C#CC4(O)CCCCC4)c3c2)cc(OC)c1OC`, the solubility was < 0.001 mg/mL (aqueous buffer).
For `C[N+](C)(C)CCO.O=C(O)[C@@H](O)Cc1ccccc1.O=C([O-])[C@@H](O)Cc1ccccc1`, the solubility was 1250 mg/mL (water).
`Cc1c(-c2ccc(Cc3ccc(OC(F)(F)F)cc3)cc2)[nH]c2cccc(F)c2c1=O` has a solubility of 0.27 µM (water; 24 h).
For `CC(C)CCCC(C)CCCC(C)CCOC1O[C@H](CO)[C@@H](O)[C@H](O)[C@H]1O` (stereo partly shown), the solubility was 33.6 µM (water).
With `CCCCCCCCCCCCCCCCCC(=O)Nc1ccn(C2OC(CO)C(O)C2(F)F)c(=O)n1` (stereo not shown) the solubility was < 0.01 µM (aqueous buffer).
For `O=C1CCCCC(=O)Nc2ccc3oc(cc3c2)CNCc2cccc(c2)CNCc2cc3cc(ccc3o2)N1`, the solubility was 22 µM (aqueous buffer; pH 7.4).
For `CC(=O)c1c(O)c(C)c(O)c2c1OC1=CC(=O)/C3=C(/C)N[C@H](C(=O)O)CC1=CC=CC=C[C@@]2(C)C3=O`, the solubility was 4700 µM (HPLC; water; 24 h, 25 °C).
For `OC(CN1CCC2(CC1)CC(O)c1ccc3ccccc3c1O2)c1ccc(F)c(F)c1` (stereo not shown), the solubility was > 0.042 mg/mL (absorbance; aqueous buffer; pH 5).
`Nc1ccc(-c2ccc3ncc4c(=O)[nH]c(=O)n(-c5cccc(C(F)(F)F)c5)c4c3n2)cn1` gave a solubility of < 0.001 mg/mL (aqueous buffer; pH 7).
With `CC(C)(C)c1ccc(O)c(C(=O)Nc2ccc(CN)cc2)c1` the solubility was 265 µM (PBS; pH 7.4).
`COc1ccc(Nc2nccc(-c3c[nH]nc3-c3cccnc3)n2)cc1` has a solubility of 0.0064 mg/mL (aqueous buffer; pH 7.4).
The solubility of `O=C(Nc1cc(C(F)F)ns1)Nc1cc(F)ncc1CO` is reported as ≥ 100 µM (HPLC; PBS; 24 h, pH 7.4).

A few entries again:
`COc1ccc(Nc2nccc(-c3c[nH]nc3-c3cccnc3)n2)cc1` has a solubility of 0.0064 mg/mL (aqueous buffer; pH 7.4).
The solubility of `O=C(Nc1cc(C(F)F)ns1)Nc1cc(F)ncc1CO` is reported as ≥ 100 µM (HPLC; PBS; 24 h, pH 7.4).
